Experimental data of several laboratories.
Each numbered part is a random draw from the data of one study; scales do not carry over between parts.
Chain of UniProt P42336 (whole entry, unmodified, looked up): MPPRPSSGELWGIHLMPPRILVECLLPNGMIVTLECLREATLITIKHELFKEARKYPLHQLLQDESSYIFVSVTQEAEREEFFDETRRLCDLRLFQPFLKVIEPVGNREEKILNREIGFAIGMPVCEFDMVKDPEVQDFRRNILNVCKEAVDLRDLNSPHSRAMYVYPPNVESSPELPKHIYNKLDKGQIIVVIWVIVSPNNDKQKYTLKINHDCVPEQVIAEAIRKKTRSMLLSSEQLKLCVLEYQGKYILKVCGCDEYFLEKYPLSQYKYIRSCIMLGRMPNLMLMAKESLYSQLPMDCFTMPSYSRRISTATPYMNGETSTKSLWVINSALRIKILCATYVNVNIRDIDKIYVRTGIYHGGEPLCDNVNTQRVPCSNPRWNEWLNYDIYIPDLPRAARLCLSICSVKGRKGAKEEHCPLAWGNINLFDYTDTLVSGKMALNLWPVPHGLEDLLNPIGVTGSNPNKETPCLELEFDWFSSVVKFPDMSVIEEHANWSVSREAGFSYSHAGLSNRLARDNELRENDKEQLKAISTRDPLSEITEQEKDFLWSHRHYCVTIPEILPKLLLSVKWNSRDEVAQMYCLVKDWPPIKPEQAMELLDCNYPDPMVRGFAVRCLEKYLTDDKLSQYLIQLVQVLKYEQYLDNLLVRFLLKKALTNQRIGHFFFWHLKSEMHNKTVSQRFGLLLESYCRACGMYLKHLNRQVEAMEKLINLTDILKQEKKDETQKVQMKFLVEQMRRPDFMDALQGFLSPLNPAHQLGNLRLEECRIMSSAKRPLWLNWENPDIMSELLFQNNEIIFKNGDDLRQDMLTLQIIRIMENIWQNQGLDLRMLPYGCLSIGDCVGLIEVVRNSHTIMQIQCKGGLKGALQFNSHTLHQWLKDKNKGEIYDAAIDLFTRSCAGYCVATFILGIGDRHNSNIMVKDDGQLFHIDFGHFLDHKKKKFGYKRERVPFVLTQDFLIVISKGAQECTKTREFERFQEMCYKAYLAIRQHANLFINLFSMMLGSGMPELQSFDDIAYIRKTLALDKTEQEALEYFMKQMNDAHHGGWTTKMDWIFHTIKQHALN
Chain of UniProt Q9NYL2 (whole entry, looked up): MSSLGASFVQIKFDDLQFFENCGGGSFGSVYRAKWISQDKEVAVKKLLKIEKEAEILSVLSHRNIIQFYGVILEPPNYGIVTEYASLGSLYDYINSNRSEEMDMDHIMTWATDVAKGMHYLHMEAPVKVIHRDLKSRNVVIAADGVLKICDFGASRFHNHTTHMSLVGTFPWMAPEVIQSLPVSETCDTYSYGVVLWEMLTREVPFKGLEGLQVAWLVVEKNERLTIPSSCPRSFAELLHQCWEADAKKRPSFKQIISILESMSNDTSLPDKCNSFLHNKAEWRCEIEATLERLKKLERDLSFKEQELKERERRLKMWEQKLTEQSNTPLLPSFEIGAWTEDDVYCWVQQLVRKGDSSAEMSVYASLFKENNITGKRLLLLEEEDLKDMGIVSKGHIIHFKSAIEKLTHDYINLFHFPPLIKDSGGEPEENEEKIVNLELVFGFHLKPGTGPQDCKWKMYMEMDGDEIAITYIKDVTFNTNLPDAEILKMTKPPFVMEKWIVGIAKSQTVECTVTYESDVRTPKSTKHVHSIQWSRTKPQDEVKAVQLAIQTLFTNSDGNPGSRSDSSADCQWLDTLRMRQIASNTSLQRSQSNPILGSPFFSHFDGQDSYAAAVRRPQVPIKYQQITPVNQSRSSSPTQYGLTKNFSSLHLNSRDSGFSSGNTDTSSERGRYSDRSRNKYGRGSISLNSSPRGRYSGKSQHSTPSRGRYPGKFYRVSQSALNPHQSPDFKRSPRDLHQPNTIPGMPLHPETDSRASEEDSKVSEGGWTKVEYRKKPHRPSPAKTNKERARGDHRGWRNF
Chain of UniProt P10721 (whole entry, unmodified, looked up): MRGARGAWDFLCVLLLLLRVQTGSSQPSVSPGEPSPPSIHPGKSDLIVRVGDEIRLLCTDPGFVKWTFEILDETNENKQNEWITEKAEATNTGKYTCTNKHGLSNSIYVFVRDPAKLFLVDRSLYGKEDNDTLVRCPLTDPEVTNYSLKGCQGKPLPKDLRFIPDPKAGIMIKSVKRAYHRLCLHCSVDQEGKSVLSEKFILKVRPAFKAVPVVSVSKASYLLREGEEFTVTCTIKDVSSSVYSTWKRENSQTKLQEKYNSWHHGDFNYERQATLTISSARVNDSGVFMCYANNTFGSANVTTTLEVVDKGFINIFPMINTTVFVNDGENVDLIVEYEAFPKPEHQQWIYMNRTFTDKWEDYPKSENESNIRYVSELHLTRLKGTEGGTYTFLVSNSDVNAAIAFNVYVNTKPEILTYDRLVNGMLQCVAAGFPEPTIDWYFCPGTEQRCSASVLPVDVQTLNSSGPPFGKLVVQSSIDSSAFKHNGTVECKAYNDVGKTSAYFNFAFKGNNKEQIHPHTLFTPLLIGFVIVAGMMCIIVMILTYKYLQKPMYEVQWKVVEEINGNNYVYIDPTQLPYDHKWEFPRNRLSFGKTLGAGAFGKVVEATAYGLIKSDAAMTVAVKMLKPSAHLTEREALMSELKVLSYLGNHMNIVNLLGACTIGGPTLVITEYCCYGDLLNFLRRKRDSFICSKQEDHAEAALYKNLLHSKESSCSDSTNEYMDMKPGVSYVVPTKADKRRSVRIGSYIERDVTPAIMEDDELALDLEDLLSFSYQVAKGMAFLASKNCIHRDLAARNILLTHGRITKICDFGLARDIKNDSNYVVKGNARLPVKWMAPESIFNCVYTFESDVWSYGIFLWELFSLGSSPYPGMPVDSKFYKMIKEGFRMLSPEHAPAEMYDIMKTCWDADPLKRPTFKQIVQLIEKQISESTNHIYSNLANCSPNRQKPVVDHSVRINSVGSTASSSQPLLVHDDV
Chain of UniProt Q12851 (whole entry, looked up): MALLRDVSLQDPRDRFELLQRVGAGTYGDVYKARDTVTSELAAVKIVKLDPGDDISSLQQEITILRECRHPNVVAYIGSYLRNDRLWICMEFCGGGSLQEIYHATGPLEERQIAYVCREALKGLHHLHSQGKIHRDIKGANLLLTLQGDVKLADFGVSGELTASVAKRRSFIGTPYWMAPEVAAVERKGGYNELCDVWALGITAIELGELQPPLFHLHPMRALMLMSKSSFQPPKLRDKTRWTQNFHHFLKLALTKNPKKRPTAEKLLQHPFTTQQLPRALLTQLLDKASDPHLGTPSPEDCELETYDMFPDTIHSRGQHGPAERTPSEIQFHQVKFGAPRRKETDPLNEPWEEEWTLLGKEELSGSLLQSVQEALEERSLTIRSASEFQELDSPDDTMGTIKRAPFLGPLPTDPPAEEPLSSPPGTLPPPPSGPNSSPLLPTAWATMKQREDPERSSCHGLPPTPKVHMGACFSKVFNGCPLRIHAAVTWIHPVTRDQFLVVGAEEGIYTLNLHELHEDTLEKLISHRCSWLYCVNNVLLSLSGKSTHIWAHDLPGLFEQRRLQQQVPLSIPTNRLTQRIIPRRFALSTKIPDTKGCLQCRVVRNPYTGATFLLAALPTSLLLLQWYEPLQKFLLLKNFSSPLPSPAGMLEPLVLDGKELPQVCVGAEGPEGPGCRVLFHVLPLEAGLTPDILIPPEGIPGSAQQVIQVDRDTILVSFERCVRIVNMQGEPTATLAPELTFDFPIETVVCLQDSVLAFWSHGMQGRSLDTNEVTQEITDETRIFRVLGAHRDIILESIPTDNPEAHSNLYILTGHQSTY
Chain of UniProt P19784 (whole entry, looked up): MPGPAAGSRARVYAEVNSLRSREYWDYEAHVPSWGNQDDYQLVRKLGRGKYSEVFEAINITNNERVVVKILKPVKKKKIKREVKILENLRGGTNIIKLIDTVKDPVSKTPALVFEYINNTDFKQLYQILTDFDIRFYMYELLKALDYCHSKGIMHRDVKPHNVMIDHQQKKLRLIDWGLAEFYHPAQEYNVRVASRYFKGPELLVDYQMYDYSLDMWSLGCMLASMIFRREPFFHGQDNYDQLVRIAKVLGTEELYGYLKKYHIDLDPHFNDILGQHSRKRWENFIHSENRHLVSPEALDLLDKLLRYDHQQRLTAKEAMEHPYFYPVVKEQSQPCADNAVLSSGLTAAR

Series 1 — observed: cell-free assay; method: competition with immobilised ligand; concentration: 1 µM; endpoint: remaining binding
Compound: COc1ccc2c(c1)O[C@@H](c1ccc(OC)c(OC)c1)C[C@H]2NC(=O)C1(c2ccc3c(c2)OC(F)(F)O3)CC1
STE20/SPS1-related proline-alanine-rich protein kinase (STK39, Homo sapiens, UniProt Q9UEW8): 71%
Serine/threonine-protein kinase NIM1 (NIM1K, Homo sapiens, UniProt Q8IY84): 94%
Mitogen-activated protein kinase kinase kinase 20 (MAP3K20, Homo sapiens, UniProt Q9NYL2): 97%
Phosphatidylinositol 4,5-bisphosphate 3-kinase catalytic subunit alpha isoform (PIK3CA, Homo sapiens, UniProt P42336, M1043I): 91%
Tyrosine-protein kinase ABL1, phosphorylated (ABL1, Homo sapiens, UniProt P00519, E255K): 80%
Mitogen-activated protein kinase kinase kinase kinase 2 (MAP4K2, Homo sapiens, UniProt Q12851): 87%
Phosphatidylinositol 4,5-bisphosphate 3-kinase catalytic subunit alpha isoform (PIK3CA, Homo sapiens, UniProt P42336, I800L): 79%
Interleukin-1 receptor-associated kinase 1 (IRAK1, Homo sapiens, UniProt P51617): 80%
Mast/stem cell growth factor receptor Kit (KIT, Homo sapiens, UniProt P10721, V559D): 86%
Bone morphogenetic protein receptor type-2 (BMPR2, Homo sapiens, UniProt Q13873): 68%
Phosphatidylinositol 3-kinase C2 domain-containing subunit gamma (PIK3C2G, Homo sapiens, UniProt O75747): 83%
Mitogen-activated protein kinase kinase kinase 4 (MAP3K4, Homo sapiens, UniProt Q9Y6R4): 95%
Casein kinase II subunit alpha' (CSNK2A2, Homo sapiens, UniProt P19784): 87%
Protein-tyrosine kinase 2-beta (PTK2B, Homo sapiens, UniProt Q14289): 100%
Epidermal growth factor receptor (EGFR, Homo sapiens, UniProt P00533, G719C): 96%
Receptor-type tyrosine-protein kinase FLT3 (FLT3, Homo sapiens, UniProt P36888): 100%
Serine/threonine-protein kinase D1 (PRKD1, Homo sapiens, UniProt Q15139): 95%

Series 2 — target: His6 tag; method: AlphaScreen counter screen; concentration: concentration not given; endpoint: inhibition
CCc1cc2c(cc1N1CCC(N3CCOCC3)CC1)C(C)(C)c1[nH]c3cc(C#N)ccc3c1C2=O: 4.35%
CCCCc1c(-c2ccc(O)cc2)[nH]c2nccnc12: -11.1%
CC[C@H](Nc1ncnc2[nH]cnc12)c1nc2cccc(F)c2c(=O)n1-c1ccccc1: 1.1%
Cc1sc2nc[nH]c(=O)c2c1-c1ccc(F)cc1: 0.45%
N#CC(=Cc1ccncc1)c1nc2ccccc2s1: 12.3%
Cc1cn([C@H]2C[C@H](N=[N+]=[N-])[C@@H](CO)O2)c(=O)[nH]c1=O: 1.55%
O=C(Nc1ccc(F)cc1)c1n[nH]c2ccccc12: 2.75%
CCn1c(C(=O)N(C2CC2)C2CC2)cc2c3c(ncn3C)c(Nc3cc(C)n(C)n3)nc21: -10.8%
Cn1cnc2c(F)c(Nc3ccc(Br)cc3F)c(C(=O)NOCCO)cc21: 5%
O=C(NCC(F)(F)F)c1n[nH]c2ccccc12: 1.5%
CCOC(=O)C1=C(CSc2ccccc2C(=O)O)NC(=O)NC1: 9.4%
CCCCOC(=O)COC(=O)c1cc(=O)[nH]c2ccccc12: 8.55%
Cn1c(=O)c(C(=O)NNS(=O)(=O)c2ccc(Br)cc2)c(O)c2ccccc21: -4.6%
O=C(O)CSc1nnc(-c2ccc(Cl)cc2)n1-c1ccccc1: 9.15%
Fc1cccc(-c2nnc3ccc(SCc4cccnc4)nn23)c1: -12.2%

Series 3 — method: phase 2a trial; species: idiopathic pulmonary fibrosis patients; endpoint: patients with eczema
Compound: CC(C)n1cnc(-c2ccc(F)cc2)c1-c1ncc(C(=O)Nc2ccc(N3CCN(C)CC3)cc2)[nH]1
30 mg once daily, grade 3 emergent event: 0%
30 mg once daily, grade 1 emergent event: 0%
all arms pooled, grade 3 emergent event: 0%
60 mg once daily, grade 2 emergent event: 0%
60 mg once daily, grade 5 emergent event: 0%
all arms pooled, grade 4 emergent event: 0%
30 mg once daily, grade 2 emergent event: 0%
30 mg once daily, grade 4 emergent event: 0%
30 mg once daily, grade 5 emergent event: 0%

Series 4 — observed: enzyme activity; mode: inhibitor; concentration: 0.5 µM; relative to: control; endpoint: remaining activity
Target: Serine/threonine-protein kinase B-raf (BRAF, Homo sapiens, UniProt P15056)
Chain of UniProt P15056 (whole entry, looked up): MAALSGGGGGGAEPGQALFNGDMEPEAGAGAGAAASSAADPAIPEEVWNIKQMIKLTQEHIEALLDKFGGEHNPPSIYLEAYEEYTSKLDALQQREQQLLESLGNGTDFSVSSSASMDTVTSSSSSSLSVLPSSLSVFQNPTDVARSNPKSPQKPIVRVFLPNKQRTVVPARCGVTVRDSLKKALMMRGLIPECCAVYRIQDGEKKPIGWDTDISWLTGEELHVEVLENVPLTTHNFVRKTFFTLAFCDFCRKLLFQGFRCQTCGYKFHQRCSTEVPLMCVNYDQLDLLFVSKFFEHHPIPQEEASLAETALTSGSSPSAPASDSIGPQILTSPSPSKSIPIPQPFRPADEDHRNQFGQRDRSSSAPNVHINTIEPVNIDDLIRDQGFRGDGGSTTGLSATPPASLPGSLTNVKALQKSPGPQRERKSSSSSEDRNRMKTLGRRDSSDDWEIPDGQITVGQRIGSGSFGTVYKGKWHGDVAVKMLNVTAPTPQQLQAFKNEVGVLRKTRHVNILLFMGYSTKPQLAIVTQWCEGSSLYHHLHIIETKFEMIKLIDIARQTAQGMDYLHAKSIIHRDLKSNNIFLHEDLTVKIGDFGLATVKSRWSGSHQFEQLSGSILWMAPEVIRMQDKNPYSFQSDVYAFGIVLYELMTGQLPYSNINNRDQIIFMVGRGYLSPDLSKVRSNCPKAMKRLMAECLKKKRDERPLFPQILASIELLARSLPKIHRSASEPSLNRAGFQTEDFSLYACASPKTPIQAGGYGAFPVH
COc1cc2ncnc(N3CCN(C(=O)Nc4ccc(Oc5ccccc5)cc4)CC3)c2cc1OC: 92.6%
O=C(Nc1ccc(Cl)cc1)c1ccccc1NCc1ccncc1: 90%
Cn1cnc2cc3c(Nc4cccc(Br)c4)ncnc3cc21: 94.2%
CN(C)CCCn1cc(C2=C(c3c[nH]c4ccccc34)C(=O)NC2=O)c2ccccc21: 103%
CC(=O)O/N=C1/C(c2c(O)[nH]c3cc(Br)ccc23)=Nc2ccccc21: 97.9%
CCN1/C(=C/C(C)=O)Sc2ccc(OC)cc21: 95.3%
COc1ccc(-c2cnc3c(-c4ccsc4)cnn3c2)cc1: 85.9%
COc1ccc(Cl)cc1NC(=O)Nc1cc(C)nc2ccccc12: 98.9%
CC(C)[C@H](CO)Nc1nc(Nc2cccc(Cl)c2)c2ncn(C(C)C)c2n1: 92.7%
CCOc1cc2ncnc(Nc3cccc(Br)c3)c2cc1OCC: 97.1%
COc1cc2ncc(-c3ccccc3)nc2cc1OC: 93.2%
O=C1NC(=O)/C(=C/c2ccc3nccnc3c2)S1: 95.1%
Nc1[nH]nc2nnc(-c3c(-c4ccccc4)nn4ccccc34)cc12: 95.7%
CCC(=O)Nc1ccc2ncnc(Nc3cccc(Br)c3)c2c1: 93%
